# Assay results of several laboratories.
# A part holds a random share of what one study measured.
# UniProt Q04771, sequence (whole entry, looked up): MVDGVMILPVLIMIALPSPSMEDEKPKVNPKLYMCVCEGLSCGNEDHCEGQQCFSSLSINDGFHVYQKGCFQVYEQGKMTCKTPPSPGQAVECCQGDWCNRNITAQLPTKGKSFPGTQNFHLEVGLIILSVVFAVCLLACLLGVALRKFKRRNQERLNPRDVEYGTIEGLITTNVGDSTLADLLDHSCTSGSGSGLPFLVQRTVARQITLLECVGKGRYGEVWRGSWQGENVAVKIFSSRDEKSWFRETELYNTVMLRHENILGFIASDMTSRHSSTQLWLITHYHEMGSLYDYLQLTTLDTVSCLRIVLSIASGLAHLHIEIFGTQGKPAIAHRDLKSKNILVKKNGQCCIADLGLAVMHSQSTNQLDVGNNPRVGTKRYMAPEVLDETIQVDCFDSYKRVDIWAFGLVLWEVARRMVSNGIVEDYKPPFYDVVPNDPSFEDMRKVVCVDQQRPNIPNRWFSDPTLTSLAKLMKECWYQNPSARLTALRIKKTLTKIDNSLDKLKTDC
# UniProt Q8NEV4, sequence (whole entry, looked up): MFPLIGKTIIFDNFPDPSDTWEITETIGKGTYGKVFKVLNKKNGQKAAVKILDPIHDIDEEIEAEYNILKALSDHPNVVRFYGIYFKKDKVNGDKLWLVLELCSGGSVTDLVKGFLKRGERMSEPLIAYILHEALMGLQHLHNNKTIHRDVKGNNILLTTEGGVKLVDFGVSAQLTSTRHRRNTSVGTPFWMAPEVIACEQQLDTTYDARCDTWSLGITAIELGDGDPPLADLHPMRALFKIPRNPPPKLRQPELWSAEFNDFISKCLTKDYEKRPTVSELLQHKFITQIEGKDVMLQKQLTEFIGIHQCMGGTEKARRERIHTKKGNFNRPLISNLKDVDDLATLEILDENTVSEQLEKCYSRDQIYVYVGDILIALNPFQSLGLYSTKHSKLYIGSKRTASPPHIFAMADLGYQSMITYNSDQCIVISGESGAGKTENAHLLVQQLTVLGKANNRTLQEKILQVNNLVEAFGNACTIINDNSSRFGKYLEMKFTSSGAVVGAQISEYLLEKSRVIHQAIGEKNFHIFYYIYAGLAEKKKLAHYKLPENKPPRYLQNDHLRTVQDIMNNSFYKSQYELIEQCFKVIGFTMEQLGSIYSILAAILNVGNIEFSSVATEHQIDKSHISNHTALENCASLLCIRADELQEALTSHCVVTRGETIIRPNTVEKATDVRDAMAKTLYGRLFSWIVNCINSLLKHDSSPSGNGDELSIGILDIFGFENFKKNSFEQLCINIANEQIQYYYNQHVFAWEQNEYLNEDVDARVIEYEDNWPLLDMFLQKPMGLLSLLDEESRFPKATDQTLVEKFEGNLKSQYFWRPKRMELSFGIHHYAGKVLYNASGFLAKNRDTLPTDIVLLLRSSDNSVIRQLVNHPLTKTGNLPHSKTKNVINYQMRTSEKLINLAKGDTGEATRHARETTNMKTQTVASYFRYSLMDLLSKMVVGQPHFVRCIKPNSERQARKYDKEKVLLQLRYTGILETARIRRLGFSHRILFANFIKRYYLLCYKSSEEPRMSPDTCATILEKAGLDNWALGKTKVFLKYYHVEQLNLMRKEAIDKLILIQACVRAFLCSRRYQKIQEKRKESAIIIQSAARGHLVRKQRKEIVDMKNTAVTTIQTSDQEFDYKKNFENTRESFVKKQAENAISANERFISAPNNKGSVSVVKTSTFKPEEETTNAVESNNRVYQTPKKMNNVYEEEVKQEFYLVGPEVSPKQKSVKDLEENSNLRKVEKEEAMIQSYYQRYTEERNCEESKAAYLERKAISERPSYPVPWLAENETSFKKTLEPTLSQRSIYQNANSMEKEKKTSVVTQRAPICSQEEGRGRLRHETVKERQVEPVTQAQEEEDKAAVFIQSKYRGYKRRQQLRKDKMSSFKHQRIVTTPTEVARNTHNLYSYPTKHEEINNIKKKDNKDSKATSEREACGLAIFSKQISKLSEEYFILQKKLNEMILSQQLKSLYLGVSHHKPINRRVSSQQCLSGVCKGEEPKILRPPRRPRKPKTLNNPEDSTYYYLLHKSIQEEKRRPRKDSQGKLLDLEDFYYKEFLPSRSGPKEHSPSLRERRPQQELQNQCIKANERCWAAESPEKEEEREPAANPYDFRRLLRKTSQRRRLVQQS
# UniProt P06239, sequence (whole entry, looked up): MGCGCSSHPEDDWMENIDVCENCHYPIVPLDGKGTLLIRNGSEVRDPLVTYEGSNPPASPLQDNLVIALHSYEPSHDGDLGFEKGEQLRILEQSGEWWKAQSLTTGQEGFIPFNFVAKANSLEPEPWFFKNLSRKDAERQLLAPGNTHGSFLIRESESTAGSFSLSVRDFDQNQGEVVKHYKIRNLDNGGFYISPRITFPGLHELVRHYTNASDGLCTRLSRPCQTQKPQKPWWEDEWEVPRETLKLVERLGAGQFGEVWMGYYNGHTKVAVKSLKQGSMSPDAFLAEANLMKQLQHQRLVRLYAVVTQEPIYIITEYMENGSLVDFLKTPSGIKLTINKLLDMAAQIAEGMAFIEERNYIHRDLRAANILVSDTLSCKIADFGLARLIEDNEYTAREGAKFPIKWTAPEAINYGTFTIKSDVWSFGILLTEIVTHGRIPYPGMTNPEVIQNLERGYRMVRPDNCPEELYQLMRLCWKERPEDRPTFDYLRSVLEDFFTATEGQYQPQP
# UniProt P46734, sequence (whole entry, looked up): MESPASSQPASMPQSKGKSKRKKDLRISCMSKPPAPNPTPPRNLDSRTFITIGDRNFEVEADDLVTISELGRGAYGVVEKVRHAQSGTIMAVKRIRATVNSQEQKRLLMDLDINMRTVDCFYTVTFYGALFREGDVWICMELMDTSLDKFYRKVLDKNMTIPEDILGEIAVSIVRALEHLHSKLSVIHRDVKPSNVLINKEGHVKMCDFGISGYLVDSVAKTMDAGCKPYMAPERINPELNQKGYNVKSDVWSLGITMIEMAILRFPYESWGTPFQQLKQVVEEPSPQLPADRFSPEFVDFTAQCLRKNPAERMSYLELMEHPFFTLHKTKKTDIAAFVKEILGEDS
# UniProt Q96PN8, sequence (whole entry, looked up): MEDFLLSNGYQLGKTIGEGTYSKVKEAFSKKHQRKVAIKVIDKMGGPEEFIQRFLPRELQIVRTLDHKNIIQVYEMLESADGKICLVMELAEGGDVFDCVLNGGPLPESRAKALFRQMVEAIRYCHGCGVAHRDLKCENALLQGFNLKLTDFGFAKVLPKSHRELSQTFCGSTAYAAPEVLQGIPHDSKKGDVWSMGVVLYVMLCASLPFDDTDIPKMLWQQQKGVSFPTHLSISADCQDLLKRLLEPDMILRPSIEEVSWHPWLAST
# UniProt Q00526, sequence (whole entry, looked up): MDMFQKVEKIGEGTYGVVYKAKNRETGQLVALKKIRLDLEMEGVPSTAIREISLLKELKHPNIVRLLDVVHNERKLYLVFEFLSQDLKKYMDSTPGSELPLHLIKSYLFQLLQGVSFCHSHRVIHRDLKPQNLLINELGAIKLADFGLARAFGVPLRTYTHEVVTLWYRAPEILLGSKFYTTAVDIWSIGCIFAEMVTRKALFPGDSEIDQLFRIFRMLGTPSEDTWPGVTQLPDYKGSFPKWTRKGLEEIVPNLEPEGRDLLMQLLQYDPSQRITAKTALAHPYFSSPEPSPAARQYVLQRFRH

# Sample 1 — method: KINOMEscan; concentration: 10 µM; relative to: DMSO control; reading: lower = stronger binding
# SMILES: COc1cc(C(=O)N2CCC(N3CCN(C)CC3)CC2)ccc1Nc1ncc2c(n1)N(C)c1ccccc1C(=O)N2C
target,binding
PRKCE,100%
SRPK1,94%
CDK11,100%
NEK3,100%
GRK1,91%
PRKD1,28%
STK39,39%
EPHA5,95%
ERK8,100%
SIK2,98%
SGK3,95%

# Sample 2 — observed: enzyme activity; mode: inhibitor; concentration: 0.5 µM; relative to: control
# Target: Activated CDC42 kinase 1 (TNK2, Homo sapiens, UniProt Q07912)
# UniProt Q07912, sequence (whole entry, looked up): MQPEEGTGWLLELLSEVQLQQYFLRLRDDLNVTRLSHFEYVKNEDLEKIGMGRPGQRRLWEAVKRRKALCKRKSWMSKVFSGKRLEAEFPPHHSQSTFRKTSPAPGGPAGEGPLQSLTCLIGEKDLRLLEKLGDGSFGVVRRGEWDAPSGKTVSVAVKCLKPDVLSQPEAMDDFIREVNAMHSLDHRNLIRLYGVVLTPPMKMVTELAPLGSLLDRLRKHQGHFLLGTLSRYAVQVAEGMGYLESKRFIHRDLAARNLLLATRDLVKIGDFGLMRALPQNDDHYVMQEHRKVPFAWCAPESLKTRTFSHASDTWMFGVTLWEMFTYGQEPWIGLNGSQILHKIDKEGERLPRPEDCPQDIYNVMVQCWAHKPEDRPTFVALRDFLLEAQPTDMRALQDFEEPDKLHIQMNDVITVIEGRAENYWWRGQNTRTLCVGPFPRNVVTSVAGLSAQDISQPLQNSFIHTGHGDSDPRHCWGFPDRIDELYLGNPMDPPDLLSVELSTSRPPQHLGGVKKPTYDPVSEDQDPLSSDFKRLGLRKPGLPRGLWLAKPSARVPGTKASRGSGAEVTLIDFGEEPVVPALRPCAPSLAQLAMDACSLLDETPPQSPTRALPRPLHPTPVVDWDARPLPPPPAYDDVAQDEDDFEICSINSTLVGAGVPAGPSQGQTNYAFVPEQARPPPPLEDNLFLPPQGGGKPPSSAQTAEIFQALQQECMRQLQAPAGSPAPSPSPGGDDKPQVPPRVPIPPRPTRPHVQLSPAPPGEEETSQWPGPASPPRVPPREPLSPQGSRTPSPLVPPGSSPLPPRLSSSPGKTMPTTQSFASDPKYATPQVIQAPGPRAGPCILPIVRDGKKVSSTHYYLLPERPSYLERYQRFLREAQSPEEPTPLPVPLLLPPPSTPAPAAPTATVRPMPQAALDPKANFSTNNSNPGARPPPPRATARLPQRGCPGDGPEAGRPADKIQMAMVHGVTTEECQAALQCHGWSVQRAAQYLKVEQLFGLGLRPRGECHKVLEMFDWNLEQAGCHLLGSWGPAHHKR
Compound,remaining activity
CC(C)n1cnc2c(Nc3cccc(Cl)c3)nc(NCCO)nc21,70.8%
COc1cc2c(N3CCN(C(=O)Nc4ccc(OC(C)C)cc4)CC3)ncnc2cc1OCCCN1CCCCC1,92.7%
O=Nc1c(-c2c(O)[nH]c3ccccc23)[nH]c2ccccc12,40.6%
O=C(O)/C=C/c1cc(Br)c(Br)c(Br)c1Br,110%
CCN(CC)CCCCN1c2ccccc2Oc2ccc(Cl)cc21,94.7%
Clc1ccc(Nc2nnc(Cc3ccncc3)c3ccccc23)cc1,91.7%
O=C1NC(=O)/C(=C/c2ccc3c(c2)OC(F)(F)O3)S1,93.2%
CNc1cc2c(Nc3cccc(Br)c3)ncnc2cn1,30.3%
C[C@@H](N)[C@H]1CC[C@H](C(=O)Nc2ccncc2)CC1,102%
COc1cc2c(Nc3ccc(Br)cc3F)ncnc2cc1OCC1CCN(C)CC1,85.4%
N#C/C(=C(/N)SC1C=CC=CC1)c1cccc(C(O)c2ccncc2)c1 (centres unmarked),92.6%
N#CC(c1ccnc(NCCc2cccnc2)n1)c1nc2ccccc2s1 (centres unmarked),42.8%
CCCCc1c(-c2ccc(O)cc2)[nH]c2nccnc12,49.9%

# Sample 3 — observed: cell-free assay; method: competition with immobilised ligand; concentration: 1 µM
# Structure (SMILES): O=C(NC[C@@H]1[C@H]2CN(C(=O)OCc3cc(C(F)(F)F)cc(C(F)(F)F)c3)C[C@@H]12)c1ccc2[nH]nnc2c1
target,remaining binding
"ROS1 (Homo sapiens, UniProt P08922)",100%
"LCK (Homo sapiens, UniProt P06239)",100%
"GRK7 (Homo sapiens, UniProt Q8WTQ7)",100%
"Tyrosine-protein kinase ABL1, non-phosphorylated (ABL1, Homo sapiens, UniProt P00519, Q252H)",78%
"TSSK3 (Homo sapiens, UniProt Q96PN8)",100%
"STK33 (Homo sapiens, UniProt Q9BYT3)",84%
"MAP2K3 (Homo sapiens, UniProt P46734)",93%
"FYN (Homo sapiens, UniProt P06241)",85%
"BTK (Homo sapiens, UniProt Q06187)",100%
"Myosin-IIIa (MYO3A, Homo sapiens, UniProt Q8NEV4)",98%
"ACVR1 (Homo sapiens, UniProt Q04771)",100%
"CDK3 (Homo sapiens, UniProt Q00526)",94%
"GRK3 (Homo sapiens, UniProt P35626)",90%
"RET (Homo sapiens, UniProt P07949, V804L)",100%

# Sample 4 — observed: RNA clamping; method: fluorescence polarization; concentration: concentration not given; with: FAM-labelled poly r(AG)8 RNA; reading: higher = more clamping
# Target: Eukaryotic initiation factor 4A-I (EIF4A1, Homo sapiens, UniProt P60842)
# UniProt P60842, sequence (whole entry, looked up): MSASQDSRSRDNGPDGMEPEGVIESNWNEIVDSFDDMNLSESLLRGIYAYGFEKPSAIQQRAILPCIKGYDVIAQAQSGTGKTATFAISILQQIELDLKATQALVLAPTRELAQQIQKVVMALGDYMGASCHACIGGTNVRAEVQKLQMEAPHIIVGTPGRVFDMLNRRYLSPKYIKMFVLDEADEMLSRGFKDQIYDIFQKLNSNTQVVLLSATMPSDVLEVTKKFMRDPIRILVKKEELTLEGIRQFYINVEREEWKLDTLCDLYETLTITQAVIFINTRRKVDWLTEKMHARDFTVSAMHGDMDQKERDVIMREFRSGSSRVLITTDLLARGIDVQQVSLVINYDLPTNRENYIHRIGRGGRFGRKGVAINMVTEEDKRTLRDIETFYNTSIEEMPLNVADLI
SMILES,fluorescence polarization change
CONC(=O)[C@H]1[C@@H](O)[C@@]2(O)c3c(OC)cc(O)cc3O[C@@]2(c2ccc(Br)cc2)[C@@H]1c1ccccc1,73.8 mP
COC(=O)[C@@H]1[C@@H](c2ccccc2)[C@]2(c3ccc(OC)cc3)Oc3cc(OC)cc(OC)c3[C@@]23NC(c2ccc(OC)cc2)=N[C@@]13O,43.6 mP
COC(=O)CCCn1c(-c2ccccc2)nc2c(c1=O)[C@@H](c1ccccc1)[C@]1(c3ccc(OC)cc3)Oc3cc(OC)cc(OC)c3[C@]21O,24.6 mP
COC(=O)[C@H]1C(=O)[C@@]2(NCc3cccnc3)c3c(OC)cc(OC)cc3O[C@@]2(c2ccc(OC)cc2)[C@@H]1c1ccccc1,-9.1 mP
COC(=O)[C@H]1[C@@H](O)[C@@]2(O)c3c(OC)cccc3N(C)[C@@]2(c2ccc(OC)cc2)[C@@H]1c1ccccc1,2.6 mP
COC(=O)[C@H]1[C@@H](O)[C@@]2(O)c3c(F)cccc3N(C)[C@@]2(c2ccc(OC)cc2)[C@@H]1c1ccccc1,2 mP

# Some of these lines once more (sample 4):
SMILES,fluorescence polarization change
COC(=O)[C@@H]1[C@@H](c2ccccc2)[C@]2(c3ccc(OC)cc3)Oc3cc(OC)cc(OC)c3[C@@]23NC(c2ccc(OC)cc2)=N[C@@]13O,43.6 mP
COC(=O)CCCn1c(-c2ccccc2)nc2c(c1=O)[C@@H](c1ccccc1)[C@]1(c3ccc(OC)cc3)Oc3cc(OC)cc(OC)c3[C@]21O,24.6 mP
COC(=O)[C@H]1C(=O)[C@@]2(NCc3cccnc3)c3c(OC)cc(OC)cc3O[C@@]2(c2ccc(OC)cc2)[C@@H]1c1ccccc1,-9.1 mP
COC(=O)[C@H]1[C@@H](O)[C@@]2(O)c3c(OC)cccc3N(C)[C@@]2(c2ccc(OC)cc2)[C@@H]1c1ccccc1,2.6 mP
COC(=O)[C@H]1[C@@H](O)[C@@]2(O)c3c(F)cccc3N(C)[C@@]2(c2ccc(OC)cc2)[C@@H]1c1ccccc1,2 mP
